Measured values gathered from unrelated publications.
Parts stem from different laboratories: compare values within a part only.
Chain of UniProt P29317 (whole entry, looked up): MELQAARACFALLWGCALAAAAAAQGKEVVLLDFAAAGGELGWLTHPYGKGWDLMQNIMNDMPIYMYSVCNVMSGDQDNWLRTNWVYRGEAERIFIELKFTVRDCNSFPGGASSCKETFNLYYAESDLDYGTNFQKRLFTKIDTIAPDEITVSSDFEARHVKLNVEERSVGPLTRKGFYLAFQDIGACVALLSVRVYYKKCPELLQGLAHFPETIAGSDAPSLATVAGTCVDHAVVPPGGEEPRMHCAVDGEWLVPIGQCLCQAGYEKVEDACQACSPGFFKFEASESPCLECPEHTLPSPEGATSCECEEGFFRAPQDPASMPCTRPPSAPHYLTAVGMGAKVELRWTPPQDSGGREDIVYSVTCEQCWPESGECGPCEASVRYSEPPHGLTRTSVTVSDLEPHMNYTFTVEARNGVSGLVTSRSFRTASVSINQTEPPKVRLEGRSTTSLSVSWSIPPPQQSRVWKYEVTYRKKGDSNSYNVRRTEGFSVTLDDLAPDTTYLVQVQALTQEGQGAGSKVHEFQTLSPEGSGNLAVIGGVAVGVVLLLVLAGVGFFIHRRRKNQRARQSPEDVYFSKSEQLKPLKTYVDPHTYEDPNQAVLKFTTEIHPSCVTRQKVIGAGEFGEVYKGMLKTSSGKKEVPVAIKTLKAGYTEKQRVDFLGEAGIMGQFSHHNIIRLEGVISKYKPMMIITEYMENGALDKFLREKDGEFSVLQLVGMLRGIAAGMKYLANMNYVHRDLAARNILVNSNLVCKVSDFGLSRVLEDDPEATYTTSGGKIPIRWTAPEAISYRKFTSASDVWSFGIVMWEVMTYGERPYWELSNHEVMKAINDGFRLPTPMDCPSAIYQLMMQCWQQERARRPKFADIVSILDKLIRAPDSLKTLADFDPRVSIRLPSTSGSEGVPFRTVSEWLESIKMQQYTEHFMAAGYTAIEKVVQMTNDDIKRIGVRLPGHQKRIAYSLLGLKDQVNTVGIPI
Chain of UniProt P49760 (whole entry, looked up): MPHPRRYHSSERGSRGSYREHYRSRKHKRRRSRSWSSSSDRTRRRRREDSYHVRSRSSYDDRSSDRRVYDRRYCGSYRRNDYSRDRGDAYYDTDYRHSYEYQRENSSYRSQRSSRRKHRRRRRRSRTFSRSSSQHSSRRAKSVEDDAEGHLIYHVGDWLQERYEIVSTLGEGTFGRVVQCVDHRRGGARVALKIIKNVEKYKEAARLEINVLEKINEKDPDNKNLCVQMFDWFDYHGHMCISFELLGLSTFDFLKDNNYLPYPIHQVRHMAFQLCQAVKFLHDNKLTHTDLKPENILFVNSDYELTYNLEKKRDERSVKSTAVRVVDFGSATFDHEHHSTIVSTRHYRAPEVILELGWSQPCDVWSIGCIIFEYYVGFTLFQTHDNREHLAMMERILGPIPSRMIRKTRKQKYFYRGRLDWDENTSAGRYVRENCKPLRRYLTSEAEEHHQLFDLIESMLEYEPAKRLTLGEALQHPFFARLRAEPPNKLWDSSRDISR
Chain of UniProt P49759 (whole entry, looked up): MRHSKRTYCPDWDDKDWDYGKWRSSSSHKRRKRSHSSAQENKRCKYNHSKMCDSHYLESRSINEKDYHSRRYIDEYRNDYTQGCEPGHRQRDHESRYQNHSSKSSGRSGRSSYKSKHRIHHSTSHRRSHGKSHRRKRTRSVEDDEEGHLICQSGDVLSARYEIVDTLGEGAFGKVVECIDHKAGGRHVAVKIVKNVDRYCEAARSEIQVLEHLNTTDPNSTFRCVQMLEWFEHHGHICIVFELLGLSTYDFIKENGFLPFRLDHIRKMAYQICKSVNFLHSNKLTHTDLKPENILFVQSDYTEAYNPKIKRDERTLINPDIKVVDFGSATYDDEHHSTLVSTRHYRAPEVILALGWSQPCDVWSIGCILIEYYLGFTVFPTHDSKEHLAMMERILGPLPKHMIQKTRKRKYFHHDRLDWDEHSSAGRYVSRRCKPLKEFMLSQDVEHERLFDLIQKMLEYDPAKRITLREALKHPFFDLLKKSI

Block 1 — read-out: enzyme activity; action: inhibitor; tested at: 77 µM; baseline: untreated
Target: DNA polymerase theta, ATPase domain (POLQ, Homo sapiens, UniProt O75417)
Chain of UniProt O75417 (whole entry, unmodified, looked up): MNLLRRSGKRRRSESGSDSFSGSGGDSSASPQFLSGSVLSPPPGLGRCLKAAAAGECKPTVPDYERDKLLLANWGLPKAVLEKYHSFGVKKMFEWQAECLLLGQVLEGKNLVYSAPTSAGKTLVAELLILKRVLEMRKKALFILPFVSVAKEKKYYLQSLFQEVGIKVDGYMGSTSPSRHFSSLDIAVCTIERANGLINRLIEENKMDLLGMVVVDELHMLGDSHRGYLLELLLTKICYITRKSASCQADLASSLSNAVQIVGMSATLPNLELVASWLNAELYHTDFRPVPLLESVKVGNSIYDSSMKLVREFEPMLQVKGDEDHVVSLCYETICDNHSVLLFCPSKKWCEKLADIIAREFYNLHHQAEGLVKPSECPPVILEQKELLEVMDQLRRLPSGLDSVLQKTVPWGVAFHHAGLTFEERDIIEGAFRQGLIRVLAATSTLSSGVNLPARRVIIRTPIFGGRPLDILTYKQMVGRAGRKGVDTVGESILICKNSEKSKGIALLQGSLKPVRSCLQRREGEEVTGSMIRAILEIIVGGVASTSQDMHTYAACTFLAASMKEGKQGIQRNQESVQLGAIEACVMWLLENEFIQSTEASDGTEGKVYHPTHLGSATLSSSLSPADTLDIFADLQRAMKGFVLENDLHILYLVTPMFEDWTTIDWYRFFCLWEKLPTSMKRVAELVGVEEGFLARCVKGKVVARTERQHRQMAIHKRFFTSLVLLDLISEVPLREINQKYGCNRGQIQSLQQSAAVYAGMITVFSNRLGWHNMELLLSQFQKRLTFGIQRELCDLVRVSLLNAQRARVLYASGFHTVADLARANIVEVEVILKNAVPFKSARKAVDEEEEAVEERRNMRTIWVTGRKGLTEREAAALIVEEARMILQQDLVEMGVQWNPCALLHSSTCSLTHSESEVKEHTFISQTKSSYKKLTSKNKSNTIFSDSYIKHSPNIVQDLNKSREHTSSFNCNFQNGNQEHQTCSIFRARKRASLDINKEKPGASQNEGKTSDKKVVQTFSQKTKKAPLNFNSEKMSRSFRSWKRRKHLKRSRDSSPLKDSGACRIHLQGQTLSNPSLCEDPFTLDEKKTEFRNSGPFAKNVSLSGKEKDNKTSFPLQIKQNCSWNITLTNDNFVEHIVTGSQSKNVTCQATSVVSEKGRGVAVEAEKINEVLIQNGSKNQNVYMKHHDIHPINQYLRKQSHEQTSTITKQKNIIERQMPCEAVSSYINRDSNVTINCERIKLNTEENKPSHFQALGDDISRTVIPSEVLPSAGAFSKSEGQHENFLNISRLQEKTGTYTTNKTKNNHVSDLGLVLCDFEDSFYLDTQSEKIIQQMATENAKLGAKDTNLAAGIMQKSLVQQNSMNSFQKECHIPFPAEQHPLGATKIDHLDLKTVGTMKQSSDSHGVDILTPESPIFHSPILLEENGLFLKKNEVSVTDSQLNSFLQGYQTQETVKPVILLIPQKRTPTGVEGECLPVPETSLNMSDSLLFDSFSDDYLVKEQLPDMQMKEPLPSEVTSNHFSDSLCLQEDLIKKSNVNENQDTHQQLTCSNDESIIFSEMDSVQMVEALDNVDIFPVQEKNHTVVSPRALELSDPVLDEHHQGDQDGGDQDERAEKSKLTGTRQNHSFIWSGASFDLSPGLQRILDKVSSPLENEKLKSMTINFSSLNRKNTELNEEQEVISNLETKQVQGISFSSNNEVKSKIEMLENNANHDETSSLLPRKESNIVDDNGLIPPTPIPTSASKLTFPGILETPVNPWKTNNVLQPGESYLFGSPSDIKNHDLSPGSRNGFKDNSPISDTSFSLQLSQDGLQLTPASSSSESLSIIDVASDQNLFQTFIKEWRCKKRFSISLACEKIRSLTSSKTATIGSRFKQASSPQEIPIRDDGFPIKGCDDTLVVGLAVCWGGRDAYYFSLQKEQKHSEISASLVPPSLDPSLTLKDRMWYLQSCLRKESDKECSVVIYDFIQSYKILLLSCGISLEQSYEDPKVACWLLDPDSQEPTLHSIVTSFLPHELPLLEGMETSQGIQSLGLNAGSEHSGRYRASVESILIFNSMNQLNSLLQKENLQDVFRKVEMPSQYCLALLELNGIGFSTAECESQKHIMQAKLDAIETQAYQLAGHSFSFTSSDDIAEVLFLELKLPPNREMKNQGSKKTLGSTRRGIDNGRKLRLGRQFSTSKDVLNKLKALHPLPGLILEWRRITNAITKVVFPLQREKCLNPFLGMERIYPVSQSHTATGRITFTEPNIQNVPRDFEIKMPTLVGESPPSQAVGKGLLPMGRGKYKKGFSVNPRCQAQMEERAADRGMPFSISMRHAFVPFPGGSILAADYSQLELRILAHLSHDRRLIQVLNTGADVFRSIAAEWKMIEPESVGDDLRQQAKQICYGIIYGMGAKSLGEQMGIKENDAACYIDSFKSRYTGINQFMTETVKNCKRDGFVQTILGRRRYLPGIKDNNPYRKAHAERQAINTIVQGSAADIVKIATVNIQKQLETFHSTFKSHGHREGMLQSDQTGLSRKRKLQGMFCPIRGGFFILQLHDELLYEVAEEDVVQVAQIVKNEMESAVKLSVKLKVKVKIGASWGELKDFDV
For `CC1(C)O[C@@H]2C[C@H]3[C@@H]4CCC5=CC(=O)C=C[C@]5(C)[C@H]4[C@@H](O)C[C@]3(C)[C@]2(C(=O)CO)O1`, the remaining activity was 101%.
`C[N+](C)(C)CCOC(=O)CCC(=O)OCC[N+](C)(C)C` gave a remaining activity of 97%.
`COC(=O)[C@]12CCC(C)(C)C[C@H]1[C@H]1C(=O)C=C3[C@@]4(C)C=C(C#N)C(=O)C(C)(C)[C@@H]4CC[C@@]3(C)[C@]1(C)CC2` gave a remaining activity of 56.7%.
`CCN(CC)CCCCNc1ncc2cc(-c3cc(OC)cc(OC)c3)c(NC(=O)NC(C)(C)C)nc2n1` gave a remaining activity of 97.2%.
`CC(C(=O)O)c1ccc2c(c1)[nH]c1ccc(Cl)cc12` (stereo not shown) gave a remaining activity of 109%.
`C[C@@H]1C(=O)O[C@H]2[C@H](O)[C@@]34[C@H]5C[C@@H](C(C)(C)C)[C@]36[C@@H](OC(=O)[C@@H]6O)O[C@@]4(C(=O)O5)[C@@]12O` has a remaining activity of 86.9%.

Block 2 — read-out: enzyme activity; action: inhibitor; tested at: 0.5 µM; baseline: control
SMILES: O=C(c1cc2cc(O)ccc2[nH]1)c1cc2cc(O)ccc2[nH]1
It gave 94.6% for remaining activity (Serine/threonine-protein kinase PAK 1 (PAK1, Homo sapiens, UniProt Q13153)).
The remaining activity was 63.3% (Calcium/calmodulin-dependent protein kinase kinase 1 (CAMKK1, Homo sapiens, UniProt Q8N5S9)).
The remaining activity was 34.3% (Mitogen-activated protein kinase kinase kinase 20 (MAP3K20, Homo sapiens, UniProt Q9NYL2)).
The remaining activity was 97.4% (Calcium/calmodulin-dependent protein kinase type 1 (CAMK1, Homo sapiens, UniProt Q14012)).
For Tyrosine-protein kinase Tec (TEC, Homo sapiens, UniProt P42680): remaining activity read 105%.
It gave 74.4% for remaining activity (Serine/threonine-protein kinase PAK 6 (PAK6, Homo sapiens, UniProt Q9NQU5)).
Tyrosine-protein kinase JAK1 (JAK1, Homo sapiens, UniProt P23458) — remaining activity: 98.7%.
Ephrin type-A receptor 2 (EPHA2, Homo sapiens, UniProt P29317) — remaining activity: 101%.
For Serine/threonine-protein kinase SIK2 (SIK2, Homo sapiens, UniProt Q9H0K1): remaining activity read 78.3%.
Cyclin-dependent kinase 2, with cyclin E (CDK2, Homo sapiens, UniProt P24941) — remaining activity: 65%.
Ribosomal protein S6 kinase alpha-3 (RPS6KA3, Homo sapiens, UniProt P51812) — remaining activity: 37.7%.
It gave 105% for remaining activity (Dual specificity protein kinase CLK2 (CLK2, Homo sapiens, UniProt P49760)).
For Casein kinase I isoform delta (CSNK1D, Homo sapiens, UniProt P48730): remaining activity read 92.5%.
The remaining activity was 92.2% (SRSF protein kinase 1 (SRPK1, Homo sapiens, UniProt Q96SB4)).
Insulin-like growth factor 1 receptor (IGF1R, Homo sapiens, UniProt P08069) — remaining activity: 103%.
The remaining activity was 76.3% (Tyrosine-protein kinase receptor TYRO3 (TYRO3, Homo sapiens, UniProt Q06418)).
The remaining activity was 94.3% (Serine/threonine-protein kinase Sgk2 (SGK2, Homo sapiens, UniProt Q9HBY8)).
For Muscle, skeletal receptor tyrosine-protein kinase (MUSK, Homo sapiens, UniProt O15146): remaining activity read 55.1%.
For Casein kinase I isoform epsilon (CSNK1E, Homo sapiens, UniProt P49674): remaining activity read 88.4%.
It gave 81.3% for remaining activity (Vascular endothelial growth factor receptor 1 (FLT1, Homo sapiens, UniProt P17948)).
It gave 82.1% for remaining activity (Dual specificity protein kinase CLK1 (CLK1, Homo sapiens, UniProt P49759)).
For Protein kinase C theta type (PRKCQ, Homo sapiens, UniProt Q04759): remaining activity read 92.1%.

Block 3 — action: inhibitor
SMILES: Cc1nc(Nc2ncc(C(=O)Nc3c(C)cccc3Cl)s2)cc(N2CCN(CCO)CC2)n1
Mitogen-activated protein kinase 11 (MAPK11, Homo sapiens, UniProt Q15759); 10 µM — inhibition: 95%.
For Mitogen-activated protein kinase kinase kinase kinase 5 (MAP4K5, Homo sapiens, UniProt Q9Y4K4); 10 µM: inhibition read 100%.
For Serine/threonine-protein kinase 16 (STK16, Homo sapiens, UniProt O75716); 10 µM: inhibition read < 50%.
For Serine/threonine-protein kinase RIO2 (RIOK2, Homo sapiens, UniProt Q9BVS4); 1 µM: inhibition read < 50%.
The inhibition was < 50% (Serine/threonine-protein kinase STK11 (STK11, Homo sapiens, UniProt Q15831); 1 µM).
It gave < 50% for inhibition (Serine/threonine-protein kinase TAO1 (TAOK1, Homo sapiens, UniProt Q7L7X3); 10 µM).
Cyclin-dependent kinase 11A (CDK11A, Homo sapiens, UniProt Q9UQ88); 10 µM — inhibition: < 50%.
The inhibition was < 50% (Aurora kinase A (AURKA, Homo sapiens, UniProt O14965); 10 µM).

Block 4 — read-out: ligand displacement; tested at: 10 µM
Target: Alpha-1B adrenergic receptor (ADRA1B, Homo sapiens, UniProt P35368)
Chain of UniProt P35368 (whole entry, looked up): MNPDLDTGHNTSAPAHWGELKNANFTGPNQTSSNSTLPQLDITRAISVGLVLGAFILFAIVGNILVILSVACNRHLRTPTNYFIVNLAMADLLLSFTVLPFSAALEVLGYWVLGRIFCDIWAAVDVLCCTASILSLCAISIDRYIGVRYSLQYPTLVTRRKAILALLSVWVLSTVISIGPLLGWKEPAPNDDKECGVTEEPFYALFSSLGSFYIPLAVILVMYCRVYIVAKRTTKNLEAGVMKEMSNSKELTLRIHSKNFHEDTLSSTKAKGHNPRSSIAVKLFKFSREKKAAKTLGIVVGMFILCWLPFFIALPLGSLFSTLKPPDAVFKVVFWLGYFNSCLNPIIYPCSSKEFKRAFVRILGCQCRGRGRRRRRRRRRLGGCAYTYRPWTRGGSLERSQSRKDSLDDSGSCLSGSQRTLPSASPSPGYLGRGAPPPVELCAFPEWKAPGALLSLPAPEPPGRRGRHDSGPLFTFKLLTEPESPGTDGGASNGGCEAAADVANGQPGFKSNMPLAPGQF
`Cc1ccc(-c2cnc([C@@]3(O)CC[C@H](C(=O)O)C(C)(C)C3)s2)cc1Nc1cccc(C(F)(F)F)n1` gave an inhibition of 7.9%.
`Nc1nc(NCc2ccccc2)nc(-c2cccc(CO)c2)n1` has an inhibition of 5.01%.
With `COc1cc(N[C@@H]2CCCC[C@]2(O)C(F)(F)F)ccc1F` the inhibition was 0.41%.
`Cc1c(NC(=O)c2cc(C(N)=O)nc3cc(F)ccc23)c(C(F)(F)F)nn1Cc1ccc(C#N)cc1` gave an inhibition of -8.82%.
The inhibition of `O=C(N[C@H]1CCCCC/C=C\C2C[C@@]2(C(=O)O)NC(=O)[C@@H]2C[C@@H](Oc3ccncc3)CN2C1=O)OC1CCCC1` (stereo partly shown) is reported as -7.2%.
`O=C(Nc1ccc(Oc2ccc(F)cc2)cc1)N1CCc2ncccc2[C@H]1c1ccc(F)cc1` has an inhibition of 12.2%.
`O=c1nc(-c2ccccn2)sc2ccccc12` has an inhibition of 9.84%.
`CCOc1ccc(S(=O)(=O)Nc2ccc(Cl)cc2C#Cc2cnc(C(=O)O)cc2OC)c2ncccc12` gave an inhibition of -9.4%.
With `CN([C@@H]1CCc2c(CC(=O)O)c3ccccc3n2C1)S(=O)(=O)c1ccc(F)cc1` the inhibition was -8.18%.
For `O=C(NCCCC1CCCCC1)c1ccc(CNC(=O)c2cnn(-c3ccccc3)c2C(F)(F)F)cc1`, the inhibition was -3.62%.
For `Cc1noc([C@H]2C[C@@H](c3ccc(C(F)(F)F)cc3)CN(C(=O)N3CCS(=O)(=O)C3)C2)n1`, the inhibition was -1.18%.
`CC1CCN(c2ccnc(NCc3cn(C)cn3)n2)CC1` gave an inhibition of -5.62%.
For `O=C(NS(=O)(=O)c1ccc(NCC2CCOCC2)c([N+](=O)[O-])c1)c1ccc(N2CCN(Cc3ccc(C(F)(F)F)cc3-c3ccc(Cl)cc3)CC2)cc1Oc1cnc2[nH]ccc2c1`, the inhibition was 12.3%.
With `Cn1nc(C(=O)NCc2ccc(C(=O)O)cc2)cc1-c1ccc2[nH]ccc2c1` the inhibition was -6.1%.
`Cn1cc(Cl)c2c(Oc3c(F)cc(Nc4cc(Cl)nc(N)n4)cc3F)ccnc21` gave an inhibition of 18.3%.
`CN(C)CC#Cc1ccc(OCCCc2sc(N3CCc4cccc(C(=O)Nc5nc6ccccc6s5)c4C3)nc2C(=O)O)c(F)c1` has an inhibition of 0.97%.
`C[C@@H]1CN(c2cc(-c3n[nH]c4ccc(OC5(C)CC5)cc34)ncn2)C[C@H](C)O1` gave an inhibition of -12.5%.
`CC1=C(C#N)C(c2ccc3[nH]nc(C)c3c2)C(C#N)=C(C)N1` gave an inhibition of 1.79%.
The inhibition of `CO[C@H]1CC[C@H](CNc2ccc(S(=O)(=O)NC(=O)c3ccc(N4CCN(CC5=C(c6ccc(Cl)cc6)CC(C)(C)CC5)CC4)cc3Oc3cnc4[nH]ccc4c3)cc2[N+](=O)[O-])CC1` is reported as 1.2%.
`O=C1NC(c2ccccn2)Sc2ccccc21` (stereo not shown) gave an inhibition of -5.82%.
For `COCCOc1nc(-c2ccc(Cl)nc2)nc2c1CN(C(=O)c1ncn3ccccc13)CC2`, the inhibition was 10.8%.
`N#CC1(c2ccccn2)CCN(Cc2cc(C(=O)N3CCCC3)c(=O)n3ccccc23)CC1` gave an inhibition of 1.36%.
`CC(=O)Nc1ncc(CN2CCC[C@H](Cc3cc(C)nc(C)c3)C2)s1` has an inhibition of -5.2%.
`Cc1cc(Nc2nccc(C)n2)cc(-c2cnc([C@@]3(O)CC[C@H](C(=O)O)C(C)(C)C3)s2)c1` gave an inhibition of 3.23%.
`CC(=O)N1CCC(c2ccc(C(=O)NC3=NCCN3)cc2C(F)(F)F)CC1` has an inhibition of -0.595%.

For quick reference, copied from above (block 2):
The remaining activity was 94.3% (Serine/threonine-protein kinase Sgk2 (SGK2, Homo sapiens, UniProt Q9HBY8)).
For Muscle, skeletal receptor tyrosine-protein kinase (MUSK, Homo sapiens, UniProt O15146): remaining activity read 55.1%.
For Casein kinase I isoform epsilon (CSNK1E, Homo sapiens, UniProt P49674): remaining activity read 88.4%.
It gave 81.3% for remaining activity (Vascular endothelial growth factor receptor 1 (FLT1, Homo sapiens, UniProt P17948)).
